# Assay results from different studies.
# Values joined by “and” are separate records of one study, mostly repeats; a detail may differ. ± gives the spread as reported.
SMILES,target or system,test,system,setting,scale,endpoint,result
N#Cc1ccn2c(-c3ccncc3)c(-c3ccc(F)cc3)nc2c1,orf19.4575 kinase Candida albicans,MIB/MS competition binding,Candida albicans cell lysate,1 µM,"reference: DMSO, lower = stronger binding",log2 fold change,0.0709
Cc1cc(=O)oc2cc(NC(=O)CCCCCCC(=O)NO)ccc12,OCI-Ly1,,,"0.1 µM, 120 h",,viability,108%
NCCOc1cc(C(=O)Nc2cc(OCCN3CCCC3)c3ccccc3n2)nc(C(=O)Nc2cc(OCCN3CCCC3)c3ccccc3n2)c1,double-stranded DNA,FRET melting,,"1 µM, pH 7.4, 60 mM potassium, with: oligonucleotide 200 nM",,delta Tm,0.4 ± 0.1 K
Cc1cccc(-c2[nH]c(C(C)(C)C)nc2-c2ccc3c(c2)OCO3)n1,Ub^G76V-GFP reporter,reporter degradation,human cells,12 µM,,inhibition,12%
CC(C)Nc1cccnc1N1CCN(C(=O)c2cc3cc(NS(C)(=O)=O)ccc3[nH]2)CC1,HIV-1,viral replication,human immunodeficiency virus 1,,,IC90,47.7 nM
O=C(NN=Cc1ccc(C[n+]2ccccc2)cc1)c1ccc2ccc3ccc(C(=O)NN=Cc4ccc(C[n+]5ccccc5)cc4)nc3c2n1.[Br-].[Br-],human telomeric G-quadruplex DNA,UV melting,,"3 µM, 100 mM potassium, with: DNA 3 µM",,delta Tm,0.7 °C
CC(=O)N[C@H](C(=O)N1C[C@H](O)C[C@H]1C(=O)NCc1ccc(-c2scnc2C)cc1)C(C)(C)SCCCCCCNC(=O)C[C@@H]1N=C(c2ccc(Cl)cc2)c2c(sc(C)c2C)-n2c(C)nnc21,human DYNC1H1,TMT proteomics,HeLa,"1 µM, 24 h",reference: DMSO,relative protein abundance,1
Fc1ccccc1Nc1nc(NCC2CCCO2)c2ccccc2n1 (stereo not drawn),Trypanosoma cruzi ribosome,"translation, refers to: Renilla luciferase",Trypanosoma cruzi extract,40 µM,,inhibition,79%
N#Cc1ccc2c(-c3ccncc3)c(-c3ccc(F)cc3)nn2c1,orf19.4575 kinase Candida albicans,MIB/MS competition binding,Candida albicans cell lysate,1 µM,"reference: DMSO, lower = stronger binding",log2 fold change,-0.21
O=C(O)CC[C@H](O)C(=O)O,"calcineurin, human","phosphatase activity, cell pretreatment then lysate",Jurkat cells,"30000 µM, 30 min, with: PMA plus A23187 15 min",,inhibition,~25%
CN(C)CCCn1c(=O)c2cc(Br)c3c(=O)n(CCCN(C)C)c(=O)c4c5[nH]c6ncccc6[nH]c5c(c1=O)c2c34,double-stranded DNA,FRET melting,,"0.25 µM, K+ 100 mM",,ΔTm,1.1 ± 0.6 °C
CCCc1cc(C)[nH]c(=O)c1CNC(=O)c1cc(-c2ccnc(N3CCN(C)CC3)c2)cc2c1cnn2C(C)C,OCI-Ly1,,,"1 µM, 120 h",,viability,86.1%
C#CCOc1cc(C(=O)Nc2cc(OCCN)c3ccccc3n2)nc(C(=O)Nc2cc(OCCN)c3ccccc3n2)c1,double-stranded DNA,FRET melting,,"1 µM, pH 7.4, 60 mM potassium, with: oligonucleotide 200 nM",,delta Tm,0 ± 0.1 K
Cc1n[nH]c2ccc(-c3cc(OC[C@@H](N)Cc4ccccc4)cnc3-c3ccoc3)cc12,orf19.4575 kinase Candida albicans,MIB/MS competition binding,Candida albicans cell lysate,10 µM,"reference: DMSO, lower = stronger binding",log2 fold change,-2.61
NCCCOc1cc(NC(=O)c2cc(Cl)cc(C(=O)Nc3cc(OCCCN)c4ccccc4n3)n2)nc2ccccc12,c-kit2 G-quadruplex DNA,FRET melting,,"1 µM, pH 7.4, with: 60 mM potassium",,ΔTm,17.3 ± 0.3 K
CCn1c(-c2nonc2N)nc2c(C#CC(C)(C)O)ncc(OC[C@H]3CCCNC3)c21,AKT human,inhibitor,,concentration not given,,PRAS40 phosphorylation,inhibited
CCN1CCN(Cc2ccc(NC(=O)c3ccc(C)c(OCc4cnc5[nH]ccc5c4OC)c3)cc2C(F)(F)F)CC1,ABL/ARG kinases (human),KiNativ profiling,Huh-7 cell lysate,1.0 µM,,inhibition,> 80%
CC(Nc1nc(N2CCCC2)nc2ccccc12)c1ccccc1 (stereo not drawn),importin α/β1,"cMyc nuclear import, high content imaging",HeLa Kyoto reporter,"10.01 µM, 2 h",,cells with nuclear reporter,91.4% and 99%
CN(C)CCCn1c(=O)c2ccc3c(=O)n(CCCN(C)C)c(=O)c4c5[nH]c6ccccc6[nH]c5c(c1=O)c2c34,double-stranded DNA,FRET melting,,"0.25 µM, K+ 100 mM",,ΔTm,1.5 ± 0.1 °C
c1ccc(-c2n[nH]cc2-c2ccnc3ccccc23)nc1,orf19.4575 kinase Candida albicans,MIB/MS competition binding,Candida albicans cell lysate,1 µM,"reference: DMSO, lower = stronger binding",log2 fold change,1.18
CN(C)CCCn1c(=O)c2ccc3c(=O)n(CCCN(C)C)c(=O)c4c5[nH]c6cc(C(=O)O)ccc6[nH]c5c(c1=O)c2c34,double-stranded DNA,FRET melting,,"0.25 µM, K+ 100 mM",,ΔTm,1.8 ± 0.6 °C
CN(C)CCOc1cc(NC(=O)c2cc(Cl)cc(C(=O)Nc3cc(OCCN(C)C)c4ccccc4n3)n2)nc2ccccc12,double-stranded DNA,FRET melting,,"1 µM, pH 7.4, 60 mM potassium, with: oligonucleotide 200 nM",,delta Tm,0 ± 0.1 K
CN(C)c1nccc(-c2cnc3ncccn23)n1,human kinase panel,KINOMEscan,,concentration not given,reference: control,remaining binding,100% and 66%
Cc1cn([C@H]2C=C[C@@H](CO)O2)c(=O)[nH]c1=O,HIV-1,viral replication,human immunodeficiency virus 1,,,IC90,645 nM
C#CCOc1cc(C(=O)Nc2cc(OCCCN)c3ccccc3n2)nc(C(=O)Nc2cc(OCCCN)c3ccccc3n2)c1,double-stranded DNA,FRET melting,,"1 µM, pH 7.4, 60 mM potassium, with: oligonucleotide 200 nM",,delta Tm,0 ± 0.1 K
Oc1ccccc1-c1n[nH]cc1-c1ccnc2ccccc12,KIN28 (Candida albicans),"kinase binding, MIB/MS competition",Candida albicans lysate,1 µM,reference: DMSO,log2 fold change,0.1
CC1CCCN1c1nccc(-c2cnn3ncccc23)n1 (stereo not drawn),human kinase panel,KINOMEscan,,concentration not given,reference: control,remaining binding,87% and 69% and 100%
O=C(c1ccc(F)cc1)N(Cc1ccccc1)C1CCCCC1,sodium channel site 2,binding,,10 µM,,inhibition,1%
Nc1nc2c(nc(Br)n2[C@@H]2O[C@@H]3COP(=O)(O)O[C@H]3[C@H]2O)c(=O)[nH]1,cone CNG channel,,"striped bass (Morone saxatilis), cone outer segment","15 µM, -35 mV",,steady-state current,-46 ± 17 pA
CN(C)CCCOc1cc(NC(=O)c2cccc(C(=O)Nc3cc(OCCCN(C)C)c4ccccc4n3)n2)nc2ccccc12,human telomeric G-quadruplex DNA,FRET melting,,"1 µM, pH 7.4, with: 60 mM potassium",,ΔTm,30.7 ± 1.2 K
Cc1c(O)cccc1C(=O)N[C@@H](CSc1ccccc1)[C@H](O)CN1C[C@H]2CCCC[C@H]2C[C@H]1C(=O)NC(C)(C)C,HIV-1,viral replication,human immunodeficiency virus 1,,,IC90,42 nM
COc1c(/C=C/c2cc(C(=O)Nc3ccc(OC4CCN(C)CC4)c(C(F)(F)F)c3)ccc2C)cnc2[nH]ccc12,ABL/ARG kinases (human),KiNativ profiling,Huh-7 cell lysate,1.0 µM,,inhibition,> 85%
CN(C)CCCOc1cc(NC(=O)c2cc(Cl)cc(C(=O)Nc3cc(OCCCN(C)C)c4ccccc4n3)n2)nc2ccccc12,c-kit2 G-quadruplex DNA,FRET melting,,"1 µM, pH 7.4, with: 60 mM potassium",,ΔTm,9.7 ± 0.5 K
C[C@H](CCC(C)(C)O)[C@H]1CC[C@H]2[C@@H]3CC=C4C[C@@H](O)CC[C@]4(C)[C@H]3CC[C@]12C,"NMDA receptor, rat","ion current, potentiator",rat hippocampal neurons,with: NMDA 10 µM,,Hill coefficient,0.54
O=C(Nc1cc(OCCN2CCCC2)c2ccccc2n1)c1cc(OCCN2CCCC2)cc(C(=O)Nc2cc(OCCN3CCCC3)c3ccccc3n2)n1,human telomeric G-quadruplex DNA,FRET melting,,"1 µM, pH 7.4, with: 60 mM potassium",,ΔTm,35.5 ± 0.8 K
c1coc(-c2n[nH]cc2-c2ccnc3ccccc23)c1,STE11 (Candida albicans),"kinase binding, MIB/MS competition",Candida albicans lysate,10 µM,reference: DMSO,log2 fold change,0.01

# Repeated from above:
SMILES,target or system,test,system,setting,scale,endpoint,result
C#CCOc1cc(C(=O)Nc2cc(OCCN)c3ccccc3n2)nc(C(=O)Nc2cc(OCCN)c3ccccc3n2)c1,double-stranded DNA,FRET melting,,"1 µM, pH 7.4, 60 mM potassium, with: oligonucleotide 200 nM",,delta Tm,0 ± 0.1 K
CN(C)CCCOc1cc(NC(=O)c2cc(Cl)cc(C(=O)Nc3cc(OCCCN(C)C)c4ccccc4n3)n2)nc2ccccc12,c-kit2 G-quadruplex DNA,FRET melting,,"1 µM, pH 7.4, with: 60 mM potassium",,ΔTm,9.7 ± 0.5 K
N#Cc1ccn2c(-c3ccncc3)c(-c3ccc(F)cc3)nc2c1,orf19.4575 kinase Candida albicans,MIB/MS competition binding,Candida albicans cell lysate,1 µM,"reference: DMSO, lower = stronger binding",log2 fold change,0.0709
O=C(NN=Cc1ccc(C[n+]2ccccc2)cc1)c1ccc2ccc3ccc(C(=O)NN=Cc4ccc(C[n+]5ccccc5)cc4)nc3c2n1.[Br-].[Br-],human telomeric G-quadruplex DNA,UV melting,,"3 µM, 100 mM potassium, with: DNA 3 µM",,delta Tm,0.7 °C
